Measured values from different studies.
Protocols differ between the studies behind these lines.

| Structure (SMILES) | test | test system | conditions | measurement | value |
| --- | --- | --- | --- | --- | --- |
| NCCONC(=O)[C@@H]1CC[C@@H]2CN1C(=O)N2OS(=O)(=O)O |  | healthy Chinese male subjects | intravenous, 1 g | incidence of serious TRAE | 0% |
| N#CCNC(=O)c1ccc(-c2ccnc(Nc3ccc(N4CCOCC4)cc3)n2)cc1 |  | patients with myelofibrosis | oral, 200 mg, 24 weeks, phase III trials | incidence of grade ≥3 thrombocytopenia | 10.8% |
| C[C@@H](c1ccc2nccn2c1)n1nnc2ncc(-c3cnn(C)c3)nc21 | refers to: ALT increased | EGFR-mutant MET-altered NSCLC patients | oral, dose not given, AE grade ≥3 | incidence of treatment-related AEs | 0% |
| C[C@@H](N)C1CCN(S(=O)(=O)c2cccc3cnccc23)CC1 |  | healthy volunteers | 150 mg, fed | incidence of epistaxis TEAE | 10% |
| COc1ccc([C@@H](O)c2cc(-c3ncnc4cc(N5CCOCC5)ccc34)c(F)cc2Cl)nn1 |  | locally advanced rectal cancer | oral, 250 mg, with: capecitabine and radiotherapy | incidence of proctitis TEAE | 67% |
| NC1(C(=O)N[C@@H](CCO)c2ccc(Cl)cc2)CCN(c2nc[nH]c3nccc2-3)CC1 |  | metastatic CRPC patients | dose not given, grade 3 to 4, treatment-related, all doses, with: enzalutamide 160 mg daily | incidence of Nausea | 0% |
| CCO[C@H]1CCN(Cc2c(OC)cc(C)c3[nH]ccc23)[C@H](c2ccc(C(=O)O)cc2)C1 |  | PNH patients, active haemolysis | oral, 100 mg, 8 weeks, treatment | incidence of dry throat | 14.3% |
| C=CC(=O)Nc1cc(Nc2nccc(-c3cn(C)c4ccccc34)n2)c(OC)cc1N(C)CCN(C)C | refers to: peripheral oedema | EGFR-mutant MET-altered NSCLC patients | oral, dose not given, AE grade ≥3, all | incidence of treatment-related AEs | 3% |
| O=C(Nc1nc2cccc(-c3ccc(CN4CCS(=O)(=O)CC4)cc3)n2n1)C1CC1 |  | rheumatoid arthritis patients | oral, 150 mg once daily, 4 weeks, TEAE regardless of relatedness | incidence of gastritis | 0% |
